Measured values gathered from unrelated publications.
Numbered parts are unrelated; each lists some results of a single study.

Block 1
Target: Histone acetyltransferase KAT6A, both winged helices, GST fusion (KAT6A, Homo sapiens, UniProt Q92794, residues 1-181)
Technique: protein binding microarray
Form: double-stranded DNA, one strand shown
Sample: in vitro
Concentration: not given
Setting: 8-mer, flanks averaged, mean of 2 arrays, mostly near background
Relative to: not given
Direction: higher = stronger binding
Residues (chain): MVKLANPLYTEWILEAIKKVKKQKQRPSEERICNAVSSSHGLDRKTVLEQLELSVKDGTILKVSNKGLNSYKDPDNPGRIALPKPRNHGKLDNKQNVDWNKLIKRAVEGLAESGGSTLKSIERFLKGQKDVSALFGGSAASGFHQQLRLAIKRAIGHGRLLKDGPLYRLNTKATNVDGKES
| Sequence | E-score |
| --- | --- |
| AACGCTCG | 0.171 |
| CCTCCTAA | -0.272 |
| AAATGTAG | -0.168 |
| GGAGGGCA | -0.114 |
| GTTGGTGA | 0.0269 |
| CTAAGTAA | 0.0403 |
| AGACAGGG | -0.0754 |

Block 2
Target: RING finger protein unkempt homolog, zinc fingers 1-6, GST-SBP tag (UNK, Homo sapiens, UniProt Q9C0B0, residues 30-357)
Sequence of UniProt Q9C0B0 (30-357, looked up): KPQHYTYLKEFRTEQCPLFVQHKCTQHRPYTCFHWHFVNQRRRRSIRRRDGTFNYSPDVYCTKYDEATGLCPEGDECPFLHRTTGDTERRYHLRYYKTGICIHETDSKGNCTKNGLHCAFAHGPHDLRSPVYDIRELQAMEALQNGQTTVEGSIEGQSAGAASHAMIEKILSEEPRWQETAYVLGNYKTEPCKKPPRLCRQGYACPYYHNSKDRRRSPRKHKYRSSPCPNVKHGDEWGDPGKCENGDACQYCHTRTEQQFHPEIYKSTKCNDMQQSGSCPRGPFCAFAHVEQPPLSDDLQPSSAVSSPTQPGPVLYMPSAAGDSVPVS
Technique: RNA Bind-n-Seq
Form: RNA
Sample: in vitro
Concentration: not given
Setting: RNA with constant flanks, human and mouse sites, ends assumed
Relative to: input RNA pool
Direction: higher = stronger binding
| Sequence | bound/input enrichment |
| --- | --- |
| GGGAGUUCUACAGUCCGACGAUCGAAGAUUUUCUUAAAAAAUGGGAAAGUCCCGCUCAGAACACAGCCCACUUGGAUCAGUUUGAACGAAUCAAGACCCUCGGCACGGGCUCCUUCGGGCGGGUGAUGCUGGUGAAACACAAGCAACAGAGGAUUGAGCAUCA | 0.149 ratio |
| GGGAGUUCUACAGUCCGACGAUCGAUGGGCAGUACUUUGUCUGCAAUAUGGAUGAUUUUAAGUUCUCUGCAGAGCUGAUCCAGCAUAUCCCACUAAGUCUCCGGGUGAGGUAUGUGUUCUGCACAGCCCCCAUCAAUAAGAAGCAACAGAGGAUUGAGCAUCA | 0.133 ratio |
| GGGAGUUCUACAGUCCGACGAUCAAUAUGGUUCGUCAUUCUUCGUCUCCAUAUGUAUUGUAUCCACCUGAUAAGCCUUUCCUUAACAGUGAUCUGAGACGCUCCCCAAAUAAGCCCACAUUUGCCUAUCCGGAAAGCAACAGCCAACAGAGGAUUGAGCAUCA | 0.14 ratio |
| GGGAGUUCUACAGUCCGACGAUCGGGGGAGGGGGAGAAGAUGCUCAUGGUCAGAGAGAUGUGGCGCUGAGAAAUUGGAAACGGUGAUGAAAUGUUGUUGGAGUUAAAGUGAAAUGAGUAGUUUUAAACAGAUUUUCCAAGUUUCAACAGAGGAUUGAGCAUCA | 1.38 ratio |
| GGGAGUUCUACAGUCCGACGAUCGAUCCAGAGGAAGAGGAGGUUGAGAAGGAAGGGAAUGCCACUGUGAGUUUCUCACAGGCCCUGGUAGAGUUCACCAGCAAUGGGAACCUCUUUUCCAGCAUGUCCUGCAGCUCUGACUCUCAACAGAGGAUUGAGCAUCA | 0.116 ratio |
| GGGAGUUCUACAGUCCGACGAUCUCCCUCCCUCCAGCCCUCACCGGCCAUGGGACUCCUGGGGGGACAUCUGUAUUCGGUGGUGUUUUCCCAACGUUGACCUCUCCUCUUUAAUCGCUCCUGUAAGCCCUGGGCAAAAGCUGCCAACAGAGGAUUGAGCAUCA | 0.335 ratio |
| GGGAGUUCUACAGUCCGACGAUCCAAAUUUUGAUUUUAUUUUGUAUCUUAAUUGCCAUGUCUCUUGUCUGUUCUGUGGGCUCAGCCAUUUGGAAUCGAAGGCAUUCUGGAAAAGACUGGUAUCUCAAUCUAAACUAUGGUGGCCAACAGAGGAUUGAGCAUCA | 0.64 ratio |

Block 3
Target: Prothrombin, mature alpha-thrombin (F2, Homo sapiens, UniProt P00734)
Technique: aptamer microarray, sandwich
Form: DNA with 2'F-ANA
Sample: in vitro
Concentration: 200 nM
Setting: whole 15-mer aptamer, many near background
With: Cy3 exosite-II aptamer, 400 nM
Direction: higher = stronger binding
Sequence: GGTTGGTGTGGTTGG
| Modification | mean fluorescence intensity [a.u.] |
| --- | --- |
| 2'F-ANA at 1 2 3 4 6 8 9 10 11 13 14 15 | 49.9 |
| 2'F-ANA at 2 5 7 9 10 13 15 | 47.1 |
| 2'F-ANA at 4 6 9 13 15 | 144 |
| 2'F-ANA at 2 3 4 6 8 11 13 | 432 |
| 2'F-ANA at 3 5 6 7 8 14 15 | 56.5 |
| 2'F-ANA at 1 3 7 8 11 12 13 14 15 | 134 |
| 2'F-ANA at 1 2 3 4 5 7 | 66.8 |

Block 4
Molecule: PhoQ, residues 284 288 289 292 302 303 DDMDFR
Technique: Sort-seq
Measured: YFP reporter
Sample: E. coli
Setting: PhoQ-PhoP variant library
With: 10 µM Mg2+
Relative to: high Mg2+ state
Direction: higher = stronger signaling
| target | fold induction |
| --- | --- |
| PhoP, residues 12 14 15 18 19 SHWTV (Escherichia coli, UniProt P23836) | 0.941 |
| PhoP, residues 12 14 15 18 19 QYCSL (Escherichia coli, UniProt P23836) | 0.814 |
| PhoP, residues 12 14 15 18 19 STHWV (Escherichia coli, UniProt P23836) | 3.27 |

Repeated from above (block 4):
| target | fold induction |
| --- | --- |
| PhoP, residues 12 14 15 18 19 SHWTV (Escherichia coli, UniProt P23836) | 0.941 |
| PhoP, residues 12 14 15 18 19 QYCSL (Escherichia coli, UniProt P23836) | 0.814 |
